# Published values of several laboratories.
# Each numbered part is a random draw from the data of one study; scales do not carry over between parts. Changes are numbered by the printed parent chain.

# Set 1 — target: CCNA2, cyclin fold, Cln2 fusion (human); technique: yeast growth competition, sequencing; sample: yeast; setting: weak parent motif; relative to: not given; reading: higher = stronger binding
# Starting sequence: MASTL docking peptide (human); PMIAKNLMCELDE
Variant,normalised enrichment score
K5A,-0.303
K5Y,-0.515
E10Q,0.234
K5Q,-0.653
M8H,-0.0195
M2T,-0.026
I3R,0.195
M8R,0.213
A4C,-0.304
L7G,-0.734
L11I,0.124
N6M,0.0283
I3H,-0.027
E10F,0.131
N6A,-0.166
M2S,0.394
N6F,-0.222
M2H,-0.153
K5H,-0.468
M2N,-0.11
M8K,0.133
C9H,-0.0157
E10P,0.0126
N6K,0.054
M8D,-0.204

# Set 2 — technique: protein binding microarray; form: double-stranded DNA, one strand shown; sample: in vitro; concentration: not given; relative to: not given; reading: higher = stronger binding
# Target: Histone acetyltransferase KAT6A, winged helix 1, GST fusion (KAT6A, Homo sapiens, UniProt Q92794, residues 1-85)
# Setting: 8-mer, flanks averaged, mean of 2 arrays, mostly near background
# Construct (chain): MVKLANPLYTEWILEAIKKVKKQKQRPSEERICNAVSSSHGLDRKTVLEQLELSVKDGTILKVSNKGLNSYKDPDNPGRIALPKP
Sequence,E-score
CCGTGCAG,0.134
AACGAAGT,-0.223
ATTGTGCC,-0.052
TAAGTGCA,-0.247
ATTACTCG,0.058
CCAATTTC,-0.23
CAGGAAGC,-0.174
CCCCGTTA,0.163
AGCTAGCG,0.242
AAATGTTA,-0.107
ATCGCAGG,-0.185
CTGGTTGC,-0.0861
ATTGCTGA,-0.135
CTTGTGCC,-0.14
CATTAACC,0.0564
AGGCGGGG,0.198
AGGGCCCC,0.0826

# Set 3 — technique: RNA Bind-n-Seq; form: RNA; sample: in vitro; concentration: not given; relative to: input RNA pool; reading: higher = stronger binding
# Target: RING finger protein unkempt homolog, zinc fingers 1-6, GST-SBP tag (UNK, Homo sapiens, UniProt Q9C0B0, residues 30-357)
# Setting: RNA with constant flanks, human and mouse sites, ends assumed
# Shared flanks, not repeated: GGGAGUUCUACAGUCCGACGAUC … CAACAGAGGAUUGAGCAUCA
# Target sequence (chain): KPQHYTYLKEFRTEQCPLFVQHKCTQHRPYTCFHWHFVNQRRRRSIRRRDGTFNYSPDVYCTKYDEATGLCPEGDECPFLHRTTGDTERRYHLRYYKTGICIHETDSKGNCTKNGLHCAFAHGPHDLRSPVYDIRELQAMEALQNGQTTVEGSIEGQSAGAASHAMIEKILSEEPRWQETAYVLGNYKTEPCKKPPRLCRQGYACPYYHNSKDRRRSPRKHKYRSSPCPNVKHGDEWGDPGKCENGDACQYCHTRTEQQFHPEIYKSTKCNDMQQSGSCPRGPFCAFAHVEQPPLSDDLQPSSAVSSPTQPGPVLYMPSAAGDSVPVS
Sequence,bound/input enrichment
UACGGCAAAGGCAAGAGUAACAGCAGCGCCGUCCCGUCCGACAGCCAGGCCCGGGAGAAGUUAGCACUCUACGUGUAUGAAUAUCUGCUCCAUGUAGGAGCUCAGAAAUCGGCUCAGACA,0.0856 ratio
UUCCCUGAAUUUCUGACAAUGAUGGCAAGAAAAAUGAAAGACACAGACAGUGAAGAAGAGAUUAGAGAAGCAUUCCGUGUGUUUGAUAAGGAUGGCAAUGGCUAUAUUAGUGCAGCAGAG,0.815 ratio
AUGUGUGUGUGUGUGUGUGUGUGUGUGUGUGUGAGUGUGUGUGUGUGUGUGUGUGUGUGUGAGUGUGUGUGUGUGUUCUCUACAUGGGGGUGCCAGGGAUUCUGUUCCAUUUUAAAUGGG,1.32 ratio
GCCCGCCGUCCCGACCCCAGCCCCACCCAAGAUGUCAGAGGAUCUAGCAAAACAGUUGGCUAGCUACAAAGCUCAACUCCAGCAAGUAGAAGCUGCCCUUUCUGGAAAUGGAGAAAAUGA,0.981 ratio
AGCUGGGAUUACAGGCAUGCGCCACCAUGCCCGGCUAAUGUUGUAUUUUUAGUAGAGAUGGGGUUUCUCUCAUGUUGGUCAGGCUGGUCUCAAACUCCCAACCUCAGGUGAUUCGCCCGC,0.603 ratio
GAGUCUGGGUUCAGGGAGCCCGUGCUGGAUGCCAAGUCGGAGGUCACGGGCCAGCUUAUAGAUUUUCAGUGGAAACUGGGCAUGGCUGUGAGCUCUGACAGCUGCAGAUCUCUCAAGUAU,0.115 ratio
AGCAAGAUCAUGUGCAUAUCAUCCCAUUGUAAAGCGACUUCAAAAAUAUGGGAACACAGUUAGUUAUUUUUACACAGUUCUUUUUGUUUUUGUGUGUGUGUGCUGUCGCUUGUCGACAAC,0.846 ratio
CCACUUCCAGGACCUAACCCCAUCUUGCCAGGGCGAGGCGGCCCCAAUGACAGAUUUCCCUUUAGACCCAGCAGGGGUCGGCCAACUGAUGGCCGGCUGUCAUUCAUGUGAUUGAUUUGU,0.318 ratio
UUAACUCCUUUACACCAUUAGUUAUCUGUGAGACCAUCUAUUCCACACUCUUCAUUUUUUAAAAAGAGACAAUAAUUAUUUUUAACUCACUGAAGUUUAAAACUACCUAGCAUUUCUGAU,47.5 ratio
UGGGCGAACCACGUCUUCCUCGGGUGCCGAUACCCUCAAAAAGUUAUGGAUAAAAUACUUAGUAUGGCUGAAGGCAUCAAAGUGACAGAUGCUCCAACCUAUACAACAAGAGAUGAACUG,0.0665 ratio
CUUUUUGCAGGGCUUAUGGUUAAAGUUCCUGUGGGGUUAUAUUUUUCCUGCAAAUUACUUCUUUUCCAAAGUCUGAUGUUGAUGUCCCCUGAAGACAGCGGCUUUUAUGCGACCAUUGUU,0.276 ratio

# Set 4 — technique: RNA Bind-n-Seq; form: RNA; sample: in vitro; concentration: 365 nM; relative to: no-protein control; reading: higher = stronger binding
# Target: RNA binding protein fox-1 homolog 2, RRM domain, GST-SBP tag (RBFOX2, Homo sapiens, UniProt O43251-10, residues 100-194)
# Setting: natural RNA segment, single round, ends assumed
# Shared flanks, not repeated: GGGAGUUCUACAGUCCGACGAUC … UGGAAUUCUCGGGUGCCAA
# Residues (chain): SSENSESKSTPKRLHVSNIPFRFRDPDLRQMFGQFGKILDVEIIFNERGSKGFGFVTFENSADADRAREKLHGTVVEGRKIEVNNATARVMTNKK
Sequence,RBNS enrichment (R)
GUAGAGUGGGGGGCCAAAACCUCUGCAGUCCCCGGCAGUGAGCUAUGGACUUUCUUCCCCCUCACAAGGCUGGGGGCCUCCUGCUCUCGUCCCUGGCCCUCCCUGCACAG,0.465
GAAAGGCAUAUGUAUAACCAAACUCCAAGUGAUAACCAGACCCAUCUCUCCUCCACCUUGACAAAAGCAGAUUAUAGUAUACAAGGUAGGAAUUCCUGUCCUAUUUGAGA,0.857
GGAUGAGCUGCUUGAGCUGACCUGUUCAGAGACCGCCAUGUGCCCUGCCCACAUCCUUGCAUCACUGUUUGCCCUGCCUAUCUCUUUCCAAAUUGUCAACUCCCUUGCCC,2.94
AGUGAGACAUAUGGGUGAGUCAUAAUAAUCAAAAUAAUUUAUGAAGAGCUGGGUCUGCAAUAGCUAGUCUAAAAACUACUUGUGUGUCAGUCCUCUGGUUAUAGUAUAUA,8.3
UGUUUUAUUCUUAAAUAAGCAAGCAAAACCUGCACAUUGGAUUCACGUGAGAUGAUAAUGAAAACUUUUAGUUUAAGAGUGAAGGGUUAAGUAACCUAACAGAGCUUUGA,0.341
UCUGGUUGGGCCUUUGAAAGGCUCAGCCUCCCAUUGUGCAGUGCUUGGGUUUGGAGCUUAUUUGAAUGGAAGAGGUCAGUUUGUUCCUGGCUCUCCAUUUCUGGCCUCAG,0.415
AAAUUUCAGUAUUUUAGUAAUAUGCCAGCUGUUCUUAAUGUAUUUAUUAAAAUGUAUAACAAUGUGAUUUUUCAAUGGUAUUAGUUCAAAUUGACGUGGAUUCAUGCCAC,1.64
UGGUCAGCUAGCUGGAGGCAGUGUUGCUGGUGUGUGUUGGGGGGAGGGGUUCUAAUGGAAUGGAUGGGGAUGUCCACACACGCAUUCAGAUGGCUGUACAACAGGUUGUA,1.13
UGAGUCAACAGACAUCAAAAUUACUGUGUACACACUUGAACAGAUGAAGAUCUUGGAUGAGCCCGUGGUCUUUUGUGUCAUCUACGAAGCUGUGGGACUAAGCAGCUGUA,0.487
CAAUGAACUAAAUCAGUGGCAUUCUCUAGAUAAUGUGGGGGAAGGUUAGAAUAUUUUCUGGCCUUCUAUGGGGUAGCAACCCAGAAUCAAUCUGAAUUAGUCCUGUUUUG,0.373
CAUGUUUCUGUUUUGUGACACAGUGGAUGGAAAGGUUUGUCCUCUUCCUACUAUAGCAUGAACCCUACAUACGCCACCCUCAGUCUCUCUUGCUUCCUCUUUAACCCGGA,3.9
GCGCCGCAGCUGCAGCCUGACAGGAUGCAGUGGGGGCGUUCCUGCCCCGAGGACUGUGGCAUUGUCACCUUCACAGCAGACAGAGCUGCCAGGCCAUGAUGGGCUGGCGA,0.241

# Set 5 — technique: universal PBM; form: double-stranded DNA, one strand shown; sample: in vitro; concentration: not given; reading: higher = stronger binding
# Target: Sal-like protein 4, full length isoform B (SALL4, Homo sapiens, UniProt Q9UJQ4-2, residues 1-616)
# Setting: 8-mer, flanks averaged, mean of replicates
# Target sequence (chain): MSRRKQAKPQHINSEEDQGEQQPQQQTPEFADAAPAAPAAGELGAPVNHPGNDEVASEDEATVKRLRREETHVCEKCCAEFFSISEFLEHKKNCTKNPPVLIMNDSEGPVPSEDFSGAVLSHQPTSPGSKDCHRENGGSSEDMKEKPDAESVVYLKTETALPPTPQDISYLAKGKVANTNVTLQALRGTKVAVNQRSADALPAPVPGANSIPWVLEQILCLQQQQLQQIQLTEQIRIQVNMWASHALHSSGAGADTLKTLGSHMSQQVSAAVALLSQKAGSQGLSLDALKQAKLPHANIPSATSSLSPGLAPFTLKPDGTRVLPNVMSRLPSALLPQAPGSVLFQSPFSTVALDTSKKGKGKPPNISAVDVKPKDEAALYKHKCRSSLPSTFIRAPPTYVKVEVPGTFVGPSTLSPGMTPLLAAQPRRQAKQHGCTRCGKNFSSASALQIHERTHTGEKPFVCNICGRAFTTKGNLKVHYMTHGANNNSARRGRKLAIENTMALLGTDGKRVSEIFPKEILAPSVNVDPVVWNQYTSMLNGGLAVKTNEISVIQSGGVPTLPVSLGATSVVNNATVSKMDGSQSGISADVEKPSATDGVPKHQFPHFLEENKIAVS
Sequence,E-score
GATCTACA,0.146
GTGTCTAA,0.166
CGTCGTTA,0.0282
CGCGGTAG,-0.0653
AAGCTCCG,-0.223
CTGCTATC,-0.0611
CAACAAAC,-0.139
AGAGAGAG,-0.0947
ATTAGAGC,0.195
AACGTGCG,-0.0884
CGAAGGTC,-0.139
GCTCAGCA,-0.088
CCCAATAA,0.127
TGAAACCA,-0.00039
AAAAGTGT,0.0233
ACACAAGC,-0.0703
ATGTACAT,0.326
ACAGAATC,-0.0641
ATCATTAC,0.257
CCGAGCCA,-0.13
GGTATTGA,0.0895
AGTGTTTG,0.00858
GTCACCCA,-0.184
ATCATGAC,0.133
AGCAGAGC,-0.154

# Other studies, line by line
Molecule,target,test,test system,setting,scale,quantity,value
"PhoQ, residues 284 288 289 292 302 303 SLSLLA","PhoP, residues 12 14 15 18 19 LYFRQ (Escherichia coli, UniProt P23836)","Sort-seq, item: YFP reporter",E. coli,"PhoQ-PhoP variant library, added: 10 µM Mg2+","relative to: high Mg2+ state, higher = stronger signaling",fold induction,3.45
